Assay results collected from several papers.
Lines come from different studies, so protocols differ. ± marks the error that the study gave. Values after ≈ are worked out from the molar mass of the structure shown.
Organism: Pseudomonas aeruginosa

SMILES = CN[C@H](CC(C)C)C(=O)N[C@H]1C(=O)N[C@@H](CC(N)=O)C(=O)N[C@H]2C(=O)N[C@H]3C(=O)N[C@H](C(=O)N[C@H](C(=O)O)c4cc(O)cc(O)c4-c4cc3ccc4O)[C@H](O)c3ccc(c(Cl)c3)Oc3cc2cc(c3O[C@@H]2O[C@H](CO)[C@@H](O)[C@H](O)[C@H]2O[C@H]2C[C@](C)(NCc3ccc(OCc4cn(CCCCC(=O)N[C@H](C(=O)N[C@@H](CCN)C(=O)N[C@H]5CCNC(=O)[C@H]([C@@H](C)O)NC(=O)[C@H](CCN)NC(=O)[C@H](CCN)NC(=O)[C@H](CC(C)C)NC(=O)[C@@H](CC(C)C)NC(=O)[C@H](CCN)NC5=O)[C@@H](C)O)nn4)c(OC)c3)[C@H](O)[C@H](C)O2)Oc2ccc(cc2Cl)[C@H]1O; test = broth microdilution; test system = ATCC 13883, cation-adjusted Mueller-Hinton broth; quantity = MIC; result = 3 µM
SMILES = Nc1nc2ccc([S+]([O-])c3cn[nH]c3)cc2s1 (stereo not shown); test = swarming area, modified FAB agar; test system = PA14-lux; setting = 200 µM, 24 h; how to read = reference: DMSO vehicle; quantity = inhibition; result = 16.4%
SMILES = CCC(=O)OCCSCCC(=O)N[C@H](CCN)C(=O)N[C@@H](CCN)C(=O)N[C@@H](CCN)C(=O)N[C@@H](CC(C)C)C(=O)N[C@H](Cc1ccccc1)C(=O)N[C@@H](CCN)C(=O)N[C@@H](CCN)C(=O)N[C@@H](CC(C)C)C(N)=O; test system = PAO1; setting = 24 h, 37 °C; quantity = MBC; result = > 128 µM
SMILES = CC(C)[C@H]1NC(=O)[C@H](Cc2ccccc2)NC(=O)[C@@H](C(C)C)NC(=O)[C@@H](C)NC(=O)[C@H](CO)NC(=O)[C@@H](Cc2c(-c3ccc(-c4ccccc4)c4ccccc34)[nH]c3ccccc23)NC(=O)[C@@H](CO)NC1=O; test = broth dilution; quantity = MIC90; result = > 50 µM
SMILES = CCCC(=O)OCCSC[C@H](N)C(=O)N[C@H](CCN)C(=O)N[C@@H](CCN)C(=O)N[C@@H](CCN)C(=O)N[C@@H](CC(C)C)C(=O)N[C@H](Cc1ccccc1)C(=O)N[C@@H](CCN)C(=O)N[C@@H](CCN)C(=O)N[C@@H](CC(C)C)C(N)=O; test system = PAO1; setting = 24 h, 37 °C; quantity = MBC; result = > 128 µM
SMILES = Cc1nc2ccc(N)cc2s1; test = pyocyanin production; test system = PA14-lux; setting = 200 µM, 18 h; how to read = reference: DMSO vehicle; quantity = inhibition; result = 6.05%
SMILES = CC(C)C[C@H](NC(=O)[C@H](CC(C)C)NC(=O)[C@H](CCCCN)NC(=O)[C@H](Cc1ccccc1)NC(=O)[C@@H](NC(=O)[C@H](CCCNC(=N)N)NC(=O)[C@@H](N)CCCCN)C(C)C)C(=O)N[C@@H](CCCCN)C(=O)N[C@@H](CCCNC(=N)N)C(=O)N[C@@H](Cc1ccc(O)cc1)C(=O)N[C@@H](Cc1c[nH]c2ccccc12)C(=O)N[C@@H](CCCNC(=N)N)C(=O)N[C@@H](CCC(N)=O)C(=O)N[C@@H](CC(C)C)C(=O)N[C@@H](CCCCN)C(=O)N[C@@H](CCCCN)C(=O)N1CCC[C@H]1C(=O)N[C@H](C(=O)N[C@@H](CCCNC(=N)N)C(=O)NCCOCCOCC(=O)O)C(C)C; test = DCFH-DA fluorescence; setting = concentration not given; how to read = reference: untreated; quantity = ROS level; result = 10 to 12 fold
SMILES = C[C@@H](N)[C@H](O)CCCCCCCC(=O)CCCCCCCCCCCCCC[C@@H](O[C@@H]1O[C@H](CO)[C@@H](O)[C@H](O)[C@H]1O)[C@@H](N)CO; test = microbial growth, resazurin; test system = ATCC27853; setting = 50 µM; quantity = inhibition; result = 99%
SMILES = CN[C@H](CC(C)C)C(=O)N[C@H]1C(=O)N[C@@H](CC(N)=O)C(=O)N[C@H]2C(=O)N[C@H]3C(=O)N[C@H](C(=O)N[C@H](C(=O)NCc4cn(CCCCC(=O)N[C@H](C(=O)N[C@@H](CCN)C(=O)N[C@H]5CCNC(=O)[C@H]([C@@H](C)O)NC(=O)[C@H](CCN)NC(=O)[C@H](CCN)NC(=O)[C@H](CC(C)C)NC(=O)[C@@H](CC(C)C)NC(=O)[C@H](CCN)NC5=O)[C@@H](C)O)nn4)c4cc(O)cc(O)c4-c4cc3ccc4O)[C@H](O)c3ccc(c(Cl)c3)Oc3cc2cc(c3O[C@@H]2O[C@H](CO)[C@@H](O)[C@H](O)[C@H]2O[C@H]2C[C@](C)(N)[C@H](O)[C@H](C)O2)Oc2ccc(cc2Cl)[C@H]1O; test = broth microdilution; test system = ATCC 25922, cation-adjusted Mueller-Hinton broth; quantity = MIC; result = 6 µM
SMILES = Nc1nc2ccc(Oc3cc[nH]c(=O)c3)cc2s1; test = swarming area, modified FAB agar; test system = PA14-lux; setting = 200 µM, 24 h; how to read = reference: DMSO vehicle; quantity = inhibition; result = 80%
SMILES = CC[C@H](C)[C@H](NC(=O)[C@H](CCCNC(=N)N)NC(=O)[C@H](CO)NC(=O)[C@H](Cc1ccc(O)cc1)NC(=O)[C@@H](NC(=O)[C@@H](NC(=O)[C@H](C)NC(=O)CNC(=O)[C@H](CCCCN)NC(=O)[C@H](CCCCN)NC(=O)CCNC(=O)CCCCCNC(=O)[C@H](CCCNC(=N)N)NC(=O)CCCCCNC(=O)[C@H](CCCNC(=N)N)NC(=O)[C@H](CCCNC(=N)N)NC(=O)CCCCCNC(=O)[C@H](CCCNC(=N)N)NC(=O)[C@H](CCCNC(=N)N)NC(=O)CCCCCNC(=O)[C@H](CCCNC(=N)N)NC(=O)[C@H](CCCNC(=N)N)NC(=O)CCCCCNC(=O)[C@@H](N)CCCNC(=N)N)C(C)C)[C@@H](C)O)C(=O)N[C@@H](CO)C(=O)NCC(=O)N[C@@H](CCC(N)=O)C(=O)N[C@@H](Cc1ccc(O)cc1)C(=O)N[C@@H](CCCCN)C(=O)O; test = crystal violet; test system = ATCC 27853; setting = 48 µM; quantity = biofilm biomass reduction; result = 78%
SMILES = C#CCNC(=O)[C@H]1NC(=O)[C@H]2NC(=O)[C@H](NC(=O)[C@@H]3NC(=O)[C@H](CC(N)=O)NC(=O)[C@H](NC(=O)[C@@H](CC(C)C)NC)[C@H](O)c4ccc(c(Cl)c4)Oc4cc3cc(c4O[C@@H]3O[C@H](CO)[C@@H](O)[C@H](O)[C@H]3O[C@H]3C[C@](C)(N)[C@H](O)[C@H](C)O3)Oc3ccc(cc3Cl)[C@H]2O)c2ccc(O)c(c2)-c2c(O)cc(O)cc21; test = broth microdilution; test system = ATCC 27853, cation-adjusted Mueller-Hinton broth; setting = 18 to 20 h, 37 °C, 0.002% polysorbate 80; quantity = MIC; result = > 128 µg/mL
SMILES = CC(C)C[C@H](NC(=O)[C@H](CCCCNC(=O)[C@H](CCCCN)NC(=O)[C@H](CC(C)C)NC(=O)[C@H](CCCCNC(=O)[C@H](CCCCN)NC(=O)[C@H](CC(C)C)NC(=O)[C@H](CCCCNC(=O)[C@H](CCCCN)NC(=O)[C@@H](N)CC(C)C)NC(=O)[C@H](CCCCN)NC(=O)[C@@H](N)CC(C)C)NC(=O)[C@H](CCCCN)NC(=O)[C@H](CC(C)C)NC(=O)[C@H](CCCCNC(=O)[C@H](CCCCN)NC(=O)[C@@H](N)CC(C)C)NC(=O)[C@H](CCCCN)NC(=O)[C@@H](N)CC(C)C)NC(=O)[C@H](CCCCN)NC(=O)[C@H](CC(C)C)NC(=O)[C@H](CCCCNC(=O)[C@H](CCCCN)NC(=O)[C@H](CC(C)C)NC(=O)[C@H](CCCCNC(=O)[C@H](CCCCN)NC(=O)[C@@H](N)CC(C)C)NC(=O)[C@H](CCCCN)NC(=O)[C@@H](N)CC(C)C)NC(=O)[C@H](CCCCN)NC(=O)[C@H](CC(C)C)NC(=O)[C@H](CCCCNC(=O)[C@H](CCCCN)NC(=O)[C@@H](N)CC(C)C)NC(=O)[C@H](CCCCN)NC(=O)[C@@H](N)CC(C)C)C(=O)N[C@@H](CCCCN)C(N)=O; test = biofilm inhibition, LB regrowth OD600; test system = PAO1; setting = concentration not given, 7-8 h regrowth; how to read = reference: medium without supernatant; quantity = OD600 of regrown supernatant; result = 1 ± 0.07
SMILES = CN[C@H](CC(C)C)C(=O)N[C@H]1C(=O)N[C@@H](CC(N)=O)C(=O)N[C@H]2C(=O)N[C@H]3C(=O)N[C@H](C(=O)N[C@H](C(=O)N[C@@H](CCCNC(=N)N)C(N)=O)c4cc(O)cc(O)c4-c4cc3ccc4O)[C@H](O)c3ccc(c(Cl)c3)Oc3cc2cc(c3O[C@@H]2O[C@H](CO)[C@@H](O)[C@H](O)[C@H]2O[C@H]2C[C@](C)(NCc3ccc(OCc4cn(CC(=O)N[C@H](C(=O)N[C@@H](CCN)C(=O)N[C@H]5CCNC(=O)[C@H]([C@@H](C)O)NC(=O)[C@H](CCN)NC(=O)[C@H](CCN)NC(=O)[C@H](CC(C)C)NC(=O)[C@@H](CC(C)C)NC(=O)[C@H](CCN)NC5=O)[C@@H](C)O)nn4)c(OC)c3)[C@H](O)[C@H](C)O2)Oc2ccc(cc2Cl)[C@H]1O; test = broth microdilution; test system = ATCC 25922, cation-adjusted Mueller-Hinton broth; quantity = MIC; result = 6 µM
SMILES = COc1ccc(-c2[nH]c3ccccc3c2C[C@H]2NC(=O)[C@@H](CO)NC(=O)[C@@H](C(C)C)NC(=O)[C@H](Cc3ccccc3)NC(=O)[C@@H](C(C)C)NC(=O)[C@@H](C)NC(=O)[C@H](CO)NC2=O)c(OC)c1; test = broth dilution; quantity = MIC90; result = > 50 µM
SMILES = Nc1nc2ccc(C(F)(F)F)cc2s1; test = pyocyanin production; test system = PA14-lux; setting = 200 µM, 18 h; how to read = reference: DMSO vehicle; quantity = inhibition; result = 26%
SMILES = CC(C)C[C@H](NC(=O)[C@H](Cc1ccccc1)NC(=O)[C@H](CCC(N)=O)NC(=O)[C@H](Cc1ccc(O)cc1)NC(=O)[C@H](CCCCN)NC(=O)[C@@H]1CCCN1C(=O)[C@H](CCCNC(=N)N)NC(=O)[C@H](CCC(N)=O)NC(=O)[C@H](Cc1c[nH]c2ccccc12)NC(=O)[C@H](CS)NC(=O)[C@H](Cc1c[nH]c2ccccc12)NC(=O)[C@H](Cc1ccccc1)NC(=O)[C@H](CCCNC(=N)N)NC(=O)[C@H](CCCCN)NC(=O)[C@H](CCCCN)NC(=O)[C@H](CCCCN)NC(=O)[C@@H](NC(=O)[C@@H](NC(=O)[C@H](CC(C)C)NC(=O)[C@@H](N)CO)C(C)C)[C@@H](C)O)C(=O)O; quantity = MBC/MIC ratio; result = 0.0625
SMILES = O=CCNCCOn1c(=O)n(OCCNCCO)c(=O)n(OCCNCCOn2c(=O)n(OCCNCCO)c(=O)n(OCCNCCO)c2=O)c1=O; test = broth microdilution; quantity = MLC; result = 4 ± 1 µg/mL (≈ 5.2 µM)
SMILES = CCCC(=O)C#Cc1ccc(F)c(F)c1; setting = 10 µM, 24 h; how to read = reference: untreated; quantity = pyocyanin production; result = 67%
SMILES = NCc1ccc(S(=O)(=O)c2ccc3nc(N)sc3c2)cn1; test = swarming area, modified FAB agar; test system = PA14-lux; setting = 200 µM, 24 h; how to read = reference: DMSO vehicle; quantity = inhibition; result = 92%
SMILES = CC(C)C[C@H](NC(=O)[C@H](CS)NC(=O)[C@H](CCCCN)NC(=O)CCNC(=O)CCCCCNC(=O)[C@H](CCCNC(=N)N)NC(=O)CCCCCNC(=O)[C@H](CCCNC(=N)N)NC(=O)[C@H](CCCNC(=N)N)NC(=O)CCCCCNC(=O)[C@H](CCCNC(=N)N)NC(=O)[C@H](CCCNC(=N)N)NC(=O)CCCCCNC(=O)[C@H](CCCNC(=N)N)NC(=O)[C@H](CCCNC(=N)N)NC(=O)CCCCCNC(=O)[C@@H](N)CCCNC(=N)N)C(=O)N[C@H](C(=O)N[C@@H](CCCCN)C(=O)N[C@@H](CO)C(=O)N[C@@H](Cc1ccc(O)cc1)C(=O)N[C@H](C(=O)N[C@@H](CO)C(=O)N[C@@H](CS)C(=O)N[C@@H](CCCCN)C(=O)O)[C@@H](C)O)[C@@H](C)O; test = crystal violet; test system = ATCC 27853; setting = 48 µM; quantity = biofilm biomass reduction; result = ~95%
SMILES = Nc1nc2ccc(Oc3ccncc3)cc2s1; test = swarming area, modified FAB agar; test system = PA14-lux; setting = 200 µM, 24 h; how to read = reference: DMSO vehicle; quantity = inhibition; result = 40%
SMILES = CC(C)[C@H]1NC(=O)[C@H](Cc2ccccc2)NC(=O)[C@@H](C(C)C)NC(=O)[C@@H](C)NC(=O)[C@H](CO)NC(=O)[C@@H](Cc2c(-c3ccc(-c4ccc(-c5ccccc5)cc4)cc3)[nH]c3ccccc23)NC(=O)[C@@H](C)NC1=O; test = broth dilution; quantity = MIC90; result = > 50 µM
SMILES = Nc1nc2ccc(S(=O)(=O)c3cn[nH]c3)cc2s1; test = swarming area, modified FAB agar; test system = PA14-lux; setting = 200 µM, 24 h; how to read = reference: DMSO vehicle; quantity = inhibition; result = 26%
SMILES = O=C(O)CN(CC(=O)O)CP(=O)(O)O; test system = IMP-37 and IMP-13 producer; setting = 32 µg/mL, with: meropenem; quantity = meropenem MIC; result = 16 µg/mL

For quick reference, copied from above:
SMILES = CC(C)[C@H]1NC(=O)[C@H](Cc2ccccc2)NC(=O)[C@@H](C(C)C)NC(=O)[C@@H](C)NC(=O)[C@H](CO)NC(=O)[C@@H](Cc2c(-c3ccc(-c4ccccc4)c4ccccc34)[nH]c3ccccc23)NC(=O)[C@@H](CO)NC1=O; test = broth dilution; quantity = MIC90; result = > 50 µM
SMILES = O=CCNCCOn1c(=O)n(OCCNCCO)c(=O)n(OCCNCCOn2c(=O)n(OCCNCCO)c(=O)n(OCCNCCO)c2=O)c1=O; test = broth microdilution; quantity = MLC; result = 4 ± 1 µg/mL (≈ 5.2 µM)
